# Experimental data gathered from unrelated publications.
# Parts stem from different laboratories: compare values within a part only.

# Block 1
# Target: Centromere-binding protein 1, full length, N-terminal tag (CBF1, Saccharomyces cerevisiae, UniProt P17106, residues 1-351)
# Sequence of UniProt P17106 (whole entry, looked up): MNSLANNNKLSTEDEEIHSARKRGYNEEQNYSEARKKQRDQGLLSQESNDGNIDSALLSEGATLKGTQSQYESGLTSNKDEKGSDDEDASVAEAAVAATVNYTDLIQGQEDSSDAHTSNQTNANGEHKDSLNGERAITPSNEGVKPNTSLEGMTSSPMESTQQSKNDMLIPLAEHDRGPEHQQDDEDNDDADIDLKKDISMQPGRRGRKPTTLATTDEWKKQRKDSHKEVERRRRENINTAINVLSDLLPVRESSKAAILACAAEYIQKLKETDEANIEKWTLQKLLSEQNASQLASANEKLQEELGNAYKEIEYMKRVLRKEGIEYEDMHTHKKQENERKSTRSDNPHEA
# Method: protein-binding microarray
# Form: double-stranded DNA, one strand shown
# Matrix: in vitro
# Tested at: 0.8 µM
# Notes: whole 60-bp probe, no competitor
# Reading: higher = stronger binding
# Shared flanks, not repeated: … GTCTTGATTCGCTTGACGCTGCTG
Strand,fluorescence intensity [a.u.]
CTACTACAATTCATTGTCATGATGTACATAGAATTC,549
CCTAACTACTATAGTCATGATTAATAGCTTCGTACA,520
GAACAGATATATACTCAGGTGCTAATGCGAATTTAG,567
GAAACCATATTTATAAATGTGATCATCATGGTCTAG,605
CCTAACTACTATAGTCACATGACATAGCTTCGTACA,8480
TGTACGAAGCTATCACACGTATATATAGTAGTTAGG,557
GAAGGTGCTCCATCCTAGGTGACCGTCGTATGCTAG,486
CTACATTAAAAATACGTCATGATAGCAATGATATTC,585
GAAAGTAAGAATGCACAGGTGACTAGTGGTTATTAG,832
GAAATATTTCAATTGCACGAGCAGATAATCCAATAG,727
GAACAGAAAGCGTGTCACCAATCATGCTAACGTTAG,563
CTACATTATTTTCGTCAGGCGTGATATCAGCGATTC,880
GAAACGTTTAATAACAGGGTGACGGAGCTTAAATAG,502
GAATTTCAAACTGATCACGTGAAAGGGAGTTAATAG,18100
CTACTCAAAACAGTGCACGTGCACCCATGGCATTTC,12400
GAATCACCAAAAAGAAACGTGCGAAAAAAACCGTAG,707
GAATATGAATCCACGCACCTGATCTGGCTCTTATAG,1040
GAATTCGGTTTGCTGAACATCAGGGAAAAAAATTAG,561
GAATAGGTATACATACATGTGAAAATGTAAGTATAG,675
CTACATATTGGAAAGAACGTGCAATGGGTAGCTTTC,611

# Block 2
# Target: RNA binding protein fox-1 homolog 2, RRM domain, GST-SBP tag (RBFOX2, Homo sapiens, UniProt O43251-10, residues 100-194)
# Method: RNA Bind-n-Seq
# Form: RNA
# Matrix: in vitro
# Tested at: 365 nM
# Notes: natural RNA segment, single round, ends assumed
# Relative to: no-protein control
# Reading: higher = stronger binding
# Shared flanks, not repeated: GGGAGUUCUACAGUCCGACGAUC … UGGAAUUCUCGGGUGCCAA
# Construct (chain): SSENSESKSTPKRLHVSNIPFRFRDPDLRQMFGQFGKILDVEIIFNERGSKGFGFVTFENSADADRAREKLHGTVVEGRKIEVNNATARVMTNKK
Strand,RBNS enrichment (R)
CUCAACUUUUCUGCCACCAGACUGUUAACUUUGCUAAAUGGCUCAAGAACAGUCAGUUAGCCCUGCUGUCUUGACUAUGUUGUUUUUAAUCACUGUGACCUCUGAAUUUU,0.365
GAGGGGGCAGGCUCAGCCAGCCCUUGGAGGCUCAGAGCAGCUGGCCCAGGCUCCAGCUCGCCUCCAGUGGAAGCCCGAGCGCCCUCAGAAACGACCCUGGCCAAUGUCAA,0.354
GGAUUGACUCAAGAGACAGUAUUAGUAAAUUUAUUGUGUAUGGAUCAAAAGUGAAUAAUGUAUGAAUGAGAGCUGUAAGAAGGAUUUUUAUUUUGUUAUAAUUUAGUUAC,1.23
ACAUUUGGGAACAUUUGACUUCCUUGGGACUCUUAAGUGCAUAAUGAUGGCAUGAAGUAAAAGGGGCCUCAAUGAUGAUAGGAAAAUCAGUUCUUUUAAAAUUUCUUCAA,2.74
GAAGUCCGACGGCUGGAAACCCAAGUGUUUGAUGGGCAGCAAGGCCCGAGCGAGCCCGUGAAUCUACCUGACAACCAAGCUGUGACAUUCAAAGAGACAAGGGACUCGUU,1.92
UACAAGGUCGCUUAGGCCCCUCUAGUCAGGGAAGAUUUGGGGGUGACAGGCUCCUUAGUCCUCGACACCAAGCUAGUAUGCGUUACCCACCUCCCAUCUGCUGCCCGGAA,0.253
CCACUUUGCUGAAAAAUACUGUACAUGUGUAAAAUGUUCAGUUGUUUUUUUGUAAAAUAUAGAACAGUUGUAAUUGAUACUGGCCAAAAUCAAUGUUAUUCCAUAUUUUA,0.627
CUCUUAUUUGGAAGACUAGCAUGACCUUGCUGUUGAUGUGCCCAUGUAGCAGGGUAAAAGAAAAUUCAUUUUCUAACAAAAUACUCACAUUCAUGAUCUACUGUAGGAGA,2.05
UCCUCUCCUCUAUAGCUAUUAGAUGUGUCAGGACCAAGUUGACCCCAACUUUCAGAACGUCCCUAGCCCUGUCUUCAUCCCUUCCCCUGCCAGUGCCUUACCACCUACCC,1.12
GCUGGGUAUGGUGGCACAUGCCUAUAGUCUCAGCUACUUGUGAGGCUGAGGCAGGAGGAUUCUUUGAGCCCAGGAGUUUGAGGUUACAGUGAGCCACAAUCACACCAAUC,0.404
AGUUCUCUGUUGAUCCUGAGACUAACAAUUGGAGACUGAGGCCAGAGCAACUGGCUCCUGGCAGCUGUGCUUGUCCGUUUCCUGUCAGAGUGAUCCCAGGUUUCCUCCUG,0.284
CAGCCUCCACCUCGCCGCUGGGGGACCAACAGGUUGCUUACAGCUUUGCACCCCGGCAUCAGCACAGGGGUCCCUGCCCCACCCUCCGGCAGCUCAGGGAGUGUUUUCCU,0.249

# Block 3
# Target: Histone acetyltransferase KAT6A, both winged helices, GST fusion (KAT6A, Homo sapiens, UniProt Q92794, residues 1-181)
# Method: protein binding microarray
# Form: double-stranded DNA, one strand shown
# Matrix: in vitro
# Tested at: not given
# Notes: 8-mer, flanks averaged, mean of 2 arrays, mostly near background
# Relative to: not given
# Reading: higher = stronger binding
# Construct (chain): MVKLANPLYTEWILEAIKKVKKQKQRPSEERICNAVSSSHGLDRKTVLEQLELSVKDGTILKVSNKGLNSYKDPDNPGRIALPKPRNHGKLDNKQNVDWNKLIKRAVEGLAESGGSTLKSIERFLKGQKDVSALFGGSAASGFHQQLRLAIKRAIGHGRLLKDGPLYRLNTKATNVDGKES
Strand,E-score
AGTCGACG,0.171
CTAGTCAA,-0.196
AATGAGCC,-0.0696
AGGCCAGG,-0.114
ACACATAA,-0.125
CACGCCCC,0.0788
ACTTATTG,-0.0873
GACGATGC,-0.0153
CATATCAG,0.0088
AATCTAAT,-0.0272
ATAACCGG,0.174
GCGCATAC,0.325
ATGGTCCC,-0.116
TAAGGATA,-0.0283
CGGCATCA,0.224
CGGCGCAC,0.318
GCCCGTCA,0.299
AAGCGGTA,0.14
CACTCTCG,-0.073
GCCGGAAA,0.222
AAATGTAT,-0.0182
GTCCCCAC,-0.0446
GCGTCCAC,0.204
CCTCACTA,-0.212
CGTATGGA,0.0175

# Block 4
# Target: Sal-like protein 4, full length isoform B (SALL4, Homo sapiens, UniProt Q9UJQ4-2, residues 1-616)
# Method: universal PBM
# Form: double-stranded DNA, one strand shown
# Matrix: in vitro
# Tested at: not given
# Notes: 8-mer, flanks averaged, mean of replicates
# Reading: higher = stronger binding
Strand,E-score
AAACCAGT,0.0497
CGTAAGAC,-0.0112
AATACGCT,0.233
TTCGCAAA,0.17
CATAAAAG,0.304
GGGTTAAC,-0.0934
CAAATTGG,0.145
AGTCAGAT,0.0615
ACGGAATG,-0.135
AACGCCCA,0.00848
AACCGTCA,-0.118
CCGTCAAC,-0.0768
ATTTCGGG,0.099
AGGATACG,0.0107
CACTTCAC,-0.0433
ATCGTTTC,0.107

# Block 5
# Target: Interferon regulatory factor 7, full length, phosphomimetic (IRF7, Homo sapiens, UniProt Q92985, residues 1-503, S101K/S471D/S472D/S475D/S476D/S477D/S483D/S484D/S487D)
# Method: protein-binding microarray
# Form: double-stranded DNA, one strand shown
# Matrix: in vitro
# Tested at: 250 nM
# Notes: 60-bp whole probe
# Together with: salmon DNA 0.4 mg/ml
# Relative to: random background probes
# Reading: higher = stronger binding
# Shared flanks, not repeated: GCCTAGCAC … GTCTTGATTCGCTTGACGCTGCTG
# Residues (chain): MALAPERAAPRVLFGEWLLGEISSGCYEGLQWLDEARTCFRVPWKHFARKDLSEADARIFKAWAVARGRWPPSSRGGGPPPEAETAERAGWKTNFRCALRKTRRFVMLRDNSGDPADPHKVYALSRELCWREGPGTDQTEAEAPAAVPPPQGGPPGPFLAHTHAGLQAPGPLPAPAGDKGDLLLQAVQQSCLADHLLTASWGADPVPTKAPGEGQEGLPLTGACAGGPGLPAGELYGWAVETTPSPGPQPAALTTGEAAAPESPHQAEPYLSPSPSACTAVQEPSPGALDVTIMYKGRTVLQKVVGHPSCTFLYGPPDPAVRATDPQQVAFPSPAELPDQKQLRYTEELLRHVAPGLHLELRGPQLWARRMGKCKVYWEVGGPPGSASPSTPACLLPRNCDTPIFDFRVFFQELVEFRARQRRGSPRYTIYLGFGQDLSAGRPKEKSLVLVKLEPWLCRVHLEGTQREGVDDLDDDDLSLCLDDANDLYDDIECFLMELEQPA
Strand,log fluorescence [z-score]
CTTTGCCTCATCTTGCAGGTAGTGCTA,0.486
GAGGATTCCAGTTTCGAGACGTGCTAG,5.91
TTAGATTTCAGTTCTGATTAGTGCTAG,0.935
GACGGACTGGGACTGGGGAGGTGCTAG,-0.583
GACGGACTGCGACTGCTGACGTGCTAG,-0.884
TCACGTATCTTCATTGTACTGTGCTAG,0.562
GTTCTTTTCAGTCCCCTCTTGTGCTAG,2.37
TCTAATTTACTTTGGTTGGCGTGCTAG,0.215
TTAGGTATCGACTATCGCTTAGTGCTA,0.311
GACGGTTTCGAATTTCGGGACGTGCTA,8.99
TTAGGATTGGACTATCGGTTAGTGCTA,-0.277
TCATGTCTGTGTCACAGAGAGTGCTAG,0.0792
TTAGGCCTGGACACTGGGTTAGTGCTA,-0.697
GTAGGTATCGGGTTTCGGTTAGTGCTA,6.41
TCAATTTTTACATTATTACTGTGCTAG,0.515
TTAGGACTGGGCACTGGGTTAGTGCTA,-0.852

# For quick reference, copied from above (block 1):
Strand,fluorescence intensity [a.u.]
GAAGGTGCTCCATCCTAGGTGACCGTCGTATGCTAG,486
CTACATTAAAAATACGTCATGATAGCAATGATATTC,585
GAAAGTAAGAATGCACAGGTGACTAGTGGTTATTAG,832
GAAATATTTCAATTGCACGAGCAGATAATCCAATAG,727
GAACAGAAAGCGTGTCACCAATCATGCTAACGTTAG,563
CTACATTATTTTCGTCAGGCGTGATATCAGCGATTC,880
GAAACGTTTAATAACAGGGTGACGGAGCTTAAATAG,502
GAATTTCAAACTGATCACGTGAAAGGGAGTTAATAG,18100
CTACTCAAAACAGTGCACGTGCACCCATGGCATTTC,12400
GAATCACCAAAAAGAAACGTGCGAAAAAAACCGTAG,707
GAATATGAATCCACGCACCTGATCTGGCTCTTATAG,1040
GAATTCGGTTTGCTGAACATCAGGGAAAAAAATTAG,561
